{"data": "Assay results collected from several papers", "note": "Lines come from different studies, so protocols differ."}
{"SMILES": "CC(C)Oc1ccc(B(O)O)c(F)n1", "organism": "Klebsiella aerogenes", "test": "bacterial growth", "system": "AmpC-overproducing clinical isolate", "conditions": "cefotaxime alone", "MIC": "8 µg/mL"}
{"SMILES": "C[N+]1=C2C(c3ccc(Cl)cc3)=[N+]([O-])c3ccccc3N2CCC1", "organism": "Porphyromonas asaccharolytica", "MIC": "4 µg/mL"}
{"SMILES": "CC[C@H](C)[C@@H]1NC(=O)CNC(=O)[C@H](CCCCN)NC(=O)[C@H](C)NC(=O)[C@H](CCC(=O)O)NC(=O)[C@H](Cc2ccccc2)NC(=O)[C@H](CO)NC(=O)[C@H](CC(C)C)NC(=O)[C@H](C(C)C)NC(=O)[C@H](CC(=O)O)NC(=O)[C@@H](NC(=O)[C@@H](NC(=O)[C@@H](N)C(C)C)[C@@H](C)O)CSSC[C@@H]2NC(=O)[C@H](CO)NC(=O)CNC(=O)CNC(=O)[C@H](CCCCN)NC(=O)[C@H](CCCCN)NC(=O)[C@H](CCCNC(=N)N)NC(=O)[C@H](CC(C)C)NC(=O)[C@H](C)NC(=O)[C@H]([C@@H](C)CC)NC(=O)[C@H](C)NC(=O)[C@H](Cc3c[nH]cn3)NC(=O)[C@H](CC(C)C)NC(=O)[C@H](C)NC(=O)[C@H](CSSC[C@@H](C(=O)N[C@H](C(=O)N[C@@H](C)C(=O)N[C@@H](CCCNC(=N)N)C(=O)N[C@@H](CC(N)=O)C(=O)O)C(C)C)NC(=O)[C@H](C(C)C)NC(=O)CNC(=O)[C@H](CC(N)=O)NC(=O)[C@H](CCC(N)=O)NC2=O)NC(=O)[C@H](C)NC(=O)[C@H](CO)NC(=O)[C@H](Cc2c[nH]cn2)NC(=O)[C@H](CC(N)=O)NC(=O)[C@H](C(C)C)NC(=O)[C@H](C)NC1=O", "organism": "Gram-negative and Gram-positive bacteria", "conditions": "highest tested 100 µM", "MIC": "> 100 µM"}
{"SMILES": "CC(=O)OC1C(C)C(OC2CC3OCOC3C(C)O2)C=COC2(C)Oc3c(C)c(O)c4c(c3C2=O)C(=O)C=C(NC(=O)C(C)=CC=CC(C(C)OC(=O)C(C)(C)CC(=O)O)C(O)C(C)C(O)C1C)C4=O (centres unmarked)", "organism": "Enterococcus", "MIC": "64 to 128 µg/mL"}
{"SMILES": "CC1C(=NOCc2cc(-c3ccc(Cl)cc3)no2)C(C)C(c2ccc(Br)cc2)OC1c1ccc(Br)cc1 (centres unmarked)", "organism": "Aspergillus niger", "test": "microbial growth", "MIC": "50 µg/mL"}
{"SMILES": "CC[C@H](C)[C@@H]1NC(=O)[C@H](CC(C)C)NC(=O)[C@@H](NC(=O)[C@H](CO)NC(=O)[C@H](CCCNC(=N)N)NC(=O)[C@@H](N)CO)CCSSCC[C@@H](C(=O)N[C@@H](CCC(N)=O)C(=O)N[C@@H](CCCNC(=N)N)C(=O)N[C@@H](CC(C)C)C(=O)N[C@@H](Cc2ccccc2)C(N)=O)NC(=O)[C@H](C(C)C)NC1=O", "organism": "Candida parapsilosis", "test": "broth microdilution", "system": "ATCC 22019", "MIC": "10 µg/mL"}
{"SMILES": "CC[C@H](C)[C@H](NC(=O)[C@@H](NC(=O)CN)C(C)C)C(=O)N[C@@H](Cc1ccccc1)C(=O)N[C@@H](CC(N)=O)C(=O)N[C@@H](C)C(=O)N[C@@H](CC(C)C)C(=O)N[C@@H](CCCCN)C(=O)NCC(=O)N[C@H](C(=O)N[C@@H](C)C(=O)N[C@@H](CCCCN)C(=O)N[C@H](C(=O)N[C@H](C(=O)N[C@@H](C)C(=O)N[C@@H](C)C(=O)N[C@@H](CCC(N)=O)C(=O)N[C@@H](CC(C)C)C(=O)N[C@@H](CC(C)C)C(=O)N[C@@H](CCCCN)C(=O)N[C@@H](CCCCN)C(=O)N[C@@H](C)C(=O)N[C@@H](CCCNC(=N)N)C(=O)N[C@H]1CSSC[C@@H](C(=O)O)NC(=O)[C@H](CO)NC(=O)[C@H](CCCCN)NC(=O)[C@H](CC(=O)O)NC(=O)[C@H](CC(C)C)NC(=O)[C@H](CCCCN)NC1=O)C(C)C)[C@@H](C)O)C(C)C", "organism": "Staphylococcus aureus", "system": "methicillin-resistant NCTC 12493", "conditions": "Mueller-Hinton broth", "MIC": "2 µM"}
{"SMILES": "COc1ccc(C2=[N+]([O-])c3ccccc3N3CCCN=C23)cc1", "organism": "Bacteroides fragilis", "test": "microbial growth", "system": "ATCC25285", "MIC": "2 µg/mL"}
{"SMILES": "N#Cc1ccc(-c2c[nH]c(CNC(=O)Nc3ncc(Sc4ccccn4)s3)n2)cc1", "organism": "Bacteroides fragilis", "test": "broth microdilution", "system": "ATCC 25285", "conditions": "with: verapamil 50 µg/mL", "MIC": "> 128 µM"}
{"SMILES": "C[N+]1=C2C(c3ccccc3)=[N+]([O-])c3ccccc3N2CCC1", "organism": "Finegoldia magna", "MIC": "32 µg/mL"}
{"SMILES": "CCCCCCCC/C=C\\CCCCc1cc(=O)c2ccccc2n1C", "organism": "Mycolicibacterium smegmatis", "test": "spot culture on 7H10 agar", "system": "mc2 155", "conditions": "3 days, 37 °C", "MIC": "10 µg/mL"}
{"SMILES": "C[N+]1=C2C(c3ccc([N+](=O)[O-])cc3)=[N+]([O-])c3ccccc3N2CCC1", "organism": "Finegoldia magna", "MIC": "1 µg/mL"}
{"SMILES": "CC[C@H](C)[C@H](NC(=O)[C@H](CCCCN)NC(=O)[C@H](CCCNC(=N)N)NC(=O)[C@H](Cc1c[nH]c2ccccc12)NC(=O)[C@@H](NC(=O)[C@H](CCCCN)NC(=O)[C@H](CCCNC(=N)N)NC(=O)[C@@H](NC(=O)[C@H](CCCNC(=N)N)NC(=O)[C@H](CCCCN)NC(=O)[C@H](CCCNC(=N)N)NC(=O)[C@H](CC(C)C)NC(=O)[C@H](CCCNC(=N)N)NC(=O)[C@H](CO)NC(=O)[C@H](Cc1ccccc1)NC(=O)[C@H](CCCNC(=N)N)NC(=O)CN)[C@@H](C)CC)C(C)C)C(=O)NCC(=O)N1CCC[C@H]1C(=O)N[C@H](C(=O)N[C@@H](C)C(=O)NCC(=O)N1CCC[C@H]1C(=O)N[C@H](C(=O)N[C@H](C(=O)NCC(=O)N[C@@H](Cc1c[nH]cn1)C(=O)N[C@@H](Cc1ccccc1)C(=O)NCC(=O)O)[C@@H](C)CC)[C@@H](C)CC)[C@@H](C)CC", "organism": "gram-negative bacteria", "test": "agar dilution", "system": "clinical isolates", "conditions": "summary range", "MIC": "8 to 16 µg/mL"}
{"SMILES": "CC[C@H](C)[C@@H]1NC(=O)CNC(=O)[C@H](CCCCN)NC(=O)[C@H](C)NC(=O)[C@H](CCC(=O)O)NC(=O)[C@H](Cc2ccccc2)NC(=O)[C@H](CO)NC(=O)[C@H](CC(C)C)NC(=O)[C@H](C(C)C)NC(=O)[C@H](CC(=O)O)NC(=O)[C@@H](NC(=O)[C@@H](NC(=O)[C@@H](N)C(C)C)[C@@H](C)O)CSSC[C@@H]2NC(=O)[C@H](CO)NC(=O)CNC(=O)CNC(=O)[C@H](CCCCN)NC(=O)[C@H](CCCCN)NC(=O)[C@H](CCCNC(=N)N)NC(=O)[C@H](CC(C)C)NC(=O)[C@H](C)NC(=O)[C@H]([C@@H](C)CC)NC(=O)[C@H](CSSC[C@@H](C(=O)N[C@@H](CCCNC(=N)N)C(=O)N[C@@H](CC(N)=O)C(=O)O)NC(=O)[C@H](C(C)C)NC(=O)[C@H](C)NC(=O)[C@H](C(C)C)NC(=O)CNC(=O)[C@H](CC(N)=O)NC(=O)[C@H](CCC(N)=O)NC2=O)NC(=O)[C@H](Cc2c[nH]cn2)NC(=O)[C@H](CC(C)C)NC(=O)[C@H](C)NC(=O)[C@H](C)NC(=O)[C@H](C)NC(=O)[C@H](CO)NC(=O)[C@H](Cc2c[nH]cn2)NC(=O)[C@H](CC(N)=O)NC(=O)[C@H](C(C)C)NC(=O)[C@H](C)NC1=O", "organism": "Gram-negative and Gram-positive bacteria", "conditions": "highest tested 100 µM", "MIC": "> 100 µM"}
{"SMILES": "[O-][N+]1=C(c2ccc(Cl)cc2)C2=NCCCCN2c2ccccc21", "organism": "Porphyromonas gingivalis", "test": "microbial growth", "system": "ATCC33277", "MIC": "0.25 µg/mL"}
{"SMILES": "CCCCCCCCCCCCCC(=O)N[C@H](CCN)C(=O)N[C@@H]1C(=O)N[C@@H](CCN)C(=O)N[C@@H](CC(C)C)C(=O)N[C@@H](CCN)C(=O)N[C@H](Cc2ccccc2)C(=O)N[C@@H](CC(C)C)C(=O)N[C@@H](CCN)C(=O)N[C@H](CCN)C(=O)N[C@@H](C(C)C)C(=O)N[C@@H](CC(=O)O)C(=O)O[C@@H]1C", "organism": "MDR Gram-positive and Gram-negative bacteria", "how to read": "up to", "MIC": "2 to 4 µg/mL"}
{"SMILES": "c1ccc(CCNC2CCCc3c2[nH]c2ccc(C4CCCCC4)cc32)cc1 (centres unmarked)", "organism": "Moraxella catarrhalis", "test": "microbial growth, broth dilution", "system": "ATCC43617", "MIC": "1 µg/mL"}
